Assay results of several laboratories.
Each numbered part is a random draw from the data of one study; scales do not carry over between parts.

Series 1 — method: RNA Bind-n-Seq; form: RNA; matrix: in vitro; concentration: 1 µM; setting: whole 134-nt RNA, ends assumed; added: 150 mM KCl; reference: input library; direction: higher = stronger binding; endpoint: log2 enrichment
Target: Ras GTPase-activating protein-binding protein 1, RRM domain (G3BP1, Homo sapiens, UniProt Q13283)
Chain of UniProt Q13283 (whole entry, looked up): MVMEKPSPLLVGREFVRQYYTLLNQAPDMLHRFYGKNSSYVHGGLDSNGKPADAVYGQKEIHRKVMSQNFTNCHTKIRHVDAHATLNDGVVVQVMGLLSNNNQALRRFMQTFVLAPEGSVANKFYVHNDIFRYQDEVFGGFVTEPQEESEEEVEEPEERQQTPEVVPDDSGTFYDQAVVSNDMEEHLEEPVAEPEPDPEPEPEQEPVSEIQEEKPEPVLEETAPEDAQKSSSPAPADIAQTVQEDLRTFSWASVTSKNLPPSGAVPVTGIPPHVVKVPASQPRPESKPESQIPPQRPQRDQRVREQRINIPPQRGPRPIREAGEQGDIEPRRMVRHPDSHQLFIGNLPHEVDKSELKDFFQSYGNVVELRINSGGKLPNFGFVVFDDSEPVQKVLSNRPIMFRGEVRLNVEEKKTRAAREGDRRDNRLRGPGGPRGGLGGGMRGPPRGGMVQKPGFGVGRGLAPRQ
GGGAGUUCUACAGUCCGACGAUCGCAGGAAGUAAAAACAAAUGGAAAUGCUUCGAAAAGUGGCAGGGGUGGGGGUUGCUAAGGAAAGGGUGGGAUGGGAGUGGGUAAAGAGUUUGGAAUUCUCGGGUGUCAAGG: 1.52
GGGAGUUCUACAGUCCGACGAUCUCAAGUCCUGUGCUACACAUCGUAUGUACCGAAUCGGGAAAGGGAGGGAAAGGGAAAGUAUUAUGUUACGCCGUUCGGAUCUGCACUUCCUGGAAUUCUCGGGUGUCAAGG: 0.769
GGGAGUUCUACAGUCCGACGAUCGAACUUUAGAGGAGGAUCUGAUGGAUAUGGCAGUGGACGUGGAUUUGGGGAUGGCUAUAAUGGGUAUGGAGGAGGACCUGGAGGUGGCAAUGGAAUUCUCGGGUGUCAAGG: -0.765
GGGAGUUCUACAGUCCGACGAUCCUCAAGUCCUGUGCUACACAUCGUAUGUACCGAAUCGGGGCCGGGCCGGGCCGGAAAGUAUUAUGUUACGCCGUUCGGAUCUGCACUUCCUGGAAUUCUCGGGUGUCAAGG: -1.03
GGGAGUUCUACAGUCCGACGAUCCCUGUGCUACACAUCGUAUGUACCGAAUCGGCCCCCCCGGCCCCCCCGGGGCCCCCCCGGAAAGUAUUAUGUUACGCCGUUCGGAUCUGCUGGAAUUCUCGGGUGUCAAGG: -0.552
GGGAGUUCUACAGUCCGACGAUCGUCCUGUGCUACACAUCGUAUGUACCGAAUCGGGGAGGGGAAAAAGGGGAAAAAGGGGAAAGUAUUAUGUUACGCCGUUCGGAUCUGCACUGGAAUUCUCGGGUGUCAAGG: 0.956
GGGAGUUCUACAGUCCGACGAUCUCAAGUCCUGUGCUACACAUCGUAUGUACCGAAUCGGAAAGGAAAGGUUUUUGGAAAGUAUUAUGUUACGCCGUUCGGAUCUGCACUUCCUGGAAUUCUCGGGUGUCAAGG: -0.287
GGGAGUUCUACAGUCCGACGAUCUUACUUUAGAGGAGGAUCUGAUGGAUAUGGCAGUGGACGUGGAUUUGGGGAUGGCUAUAAUGGGUAUGGAGGAGGACCUGGAGGUGGCAAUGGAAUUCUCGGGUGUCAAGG: -0.73
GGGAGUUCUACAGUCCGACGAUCCUCAAGUCCUGUGCUACACAUCGUAUGUACCGAAUCGGAAAGGAGGUUUUUGGAAAGUAUUAUGUUACGCCGUUCGGAUCUGCACUUCCAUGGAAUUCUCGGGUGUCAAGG: -0.225
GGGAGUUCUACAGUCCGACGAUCUGUGCUACACAUCGUAUGUACCGAAUCGGGGCCCCCCCGGGGCCCCCCCGGGGCCCCCCCGGAAAGUAUUAUGUUACGCCGUUCGGAUCUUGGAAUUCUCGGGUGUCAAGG: -0.489

Series 2 — method: RNA Bind-n-Seq; form: RNA; matrix: in vitro; concentration: 365 nM; reference: no-protein control; direction: higher = stronger binding; endpoint: RBNS enrichment (R)
Target: RNA binding protein fox-1 homolog 2, RRM domain, GST-SBP tag (RBFOX2, Homo sapiens, UniProt O43251-10, residues 100-194)
Setting: natural RNA segment, single round, ends assumed
Target sequence (chain): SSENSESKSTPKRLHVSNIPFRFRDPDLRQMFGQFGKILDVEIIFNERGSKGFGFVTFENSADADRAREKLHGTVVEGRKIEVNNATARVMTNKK
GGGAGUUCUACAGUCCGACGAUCUGGCAGUUUGGACAGGGGUGACUGUUCACACGUAUGGACAGGCCUCGCCUGGGGAGUAAGGCCACCAACCAAAGUCAGUUCCUUCCCACCUGUGUUUCUGAUUUUGUUUUUGGAAUUCUCGGGUGCCAA: 0.656
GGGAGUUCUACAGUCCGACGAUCUAUCCAAUCUUUUUUUUUUGUAUUUAAAGAUCACAGGUAGAUAGAUGUAAGACAUUUGAUCCCCUGUUGACUUACAAAAUUGUAAAUGGUAAAGCAGGCUAGAGUCUUAAUGGAAUUCUCGGGUGCCAA: 0.377
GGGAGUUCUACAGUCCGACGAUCACAUACAGUUGGCUGCUUAACAGACUCUCUAGCCGUUCAUUUUUGUGACGUCUCUUUGUUAACCUAAGUAUAUCUAUUUUCGGCAAUAAGGUAAGGACGGCCGUGUUUUGUGGAAUUCUCGGGUGCCAA: 0.486
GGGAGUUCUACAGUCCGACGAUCGGGGCGUCUUGCCCCUAUAUAUCAUCUUCCCGGAUUCCACUCCCUGUUGUGGGAAUCGCGCCCACCCCCAUCCGUGUGUUGUAGCCACUCACGGUUUGCAUCAAGAGUGUUGGAAUUCUCGGGUGCCAA: 0.379
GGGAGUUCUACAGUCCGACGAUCGUGAGCUCUUCUCUGUCGCCCUGAAGGGUCACUGUAUUCUGUAUGAAUGCAUGGCAUGAUACAACUAAUUUAAGAGUCUUUUAUAAAUAAAGUUUGCAUUAACUAUACCUUGGAAUUCUCGGGUGCCAA: 9.61
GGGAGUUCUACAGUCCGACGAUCGAUCUUGACUCUGAGGAGAGCCAGCCCUGUAAAAAGCUUGGUCCUCCUGUGACGGGAGGGAUGGUUAAGGUACAAAGGCUAGAAACUUGAGUUUCUUCAUUUCUGUCUCAUGGAAUUCUCGGGUGCCAA: 0.317
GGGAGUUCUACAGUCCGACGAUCCAGCUGUGGUGGCUAAAGGGAAUAUGUUAAUUAAGCAAGAGGUUCUUUUCUAAAAGUGGUAUCUGUUAUCCACAAUGUAUUUUAGUUAUUCCCACAAGUCAGGGGUCCAGUGGAAUUCUCGGGUGCCAA: 0.85
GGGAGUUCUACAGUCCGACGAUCGGACACCUGAGUCUCUUCCUCUUGUUCCUUCCACUAUGAGGCUCUGAGCCUCUCUGUGCCUUGGGCCCUAAAGCCCCAUGUGUAGUAUAGAGCAAAGGUGAUUCCUGGUGUGGAAUUCUCGGGUGCCAA: 0.153
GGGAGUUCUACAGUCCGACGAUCCUUCUGCUCUUGGCCCCUCUGGCCAGGGCCCCUGUGGCUUCCUGCACACUGGACAGGUGACUGUAUGGUAGAGACUGUGAUCUGGGAACUUUUUGCUGUACAAAUCUGUUUGGAAUUCUCGGGUGCCAA: 0.506
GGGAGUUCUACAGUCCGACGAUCGUUCUCAAACUCUCUCACUAUUAUCUGUGGUUGCCGUUUCUUCCCAAGGCCAGCCUGGACGAAUUUGGGGUUGCUCUAUCCUGAGAGUUGUAACCUCAACUUCCAAAGUUUGGAAUUCUCGGGUGCCAA: 0.635
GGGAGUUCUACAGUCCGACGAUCCUUUCCUUCUCAGAGCCUCCUGAACCCCUGGGUAGGGCCUCCCCAUGUACCCUGCCGACUGACUGAGGCACACAACUUCCCUGGCUUAUCAGAAGAUUCAUUUACAGGGAUGGAAUUCUCGGGUGCCAA: 0.608
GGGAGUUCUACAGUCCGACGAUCCAAGUGGGUCUGGGCAGCUUCCCCUGAGCUUACGUUUUGUUUUGUUUUGUUUUUUCGAUGUGAAUAGAGAACUCGGACAUUUUGCUGCUAAACAAUCUCCCCUCCCUCACUGGAAUUCUCGGGUGCCAA: 0.713

Series 3 — method: RNAcompete; form: RNA; matrix: in vitro; concentration: 20 nM; setting: 7-mer, probes averaged, single round; reference: mean of 7-mers; direction: higher = stronger binding; endpoint: 7-mer Z-score
Target: PABPC1L2, full length, GST fusion (mouse, UniProt A0ABA7IW68)
Target sequence (chain): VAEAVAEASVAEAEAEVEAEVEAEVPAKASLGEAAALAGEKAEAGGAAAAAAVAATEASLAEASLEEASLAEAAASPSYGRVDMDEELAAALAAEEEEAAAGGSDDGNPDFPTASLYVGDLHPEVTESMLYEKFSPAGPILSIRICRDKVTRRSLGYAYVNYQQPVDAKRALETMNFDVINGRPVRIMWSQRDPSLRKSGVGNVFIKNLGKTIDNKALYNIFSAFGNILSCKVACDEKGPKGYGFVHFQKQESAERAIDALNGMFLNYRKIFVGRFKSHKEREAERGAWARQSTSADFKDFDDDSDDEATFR
GUUAGUA: -0.197
CCCUCCG: -0.416
GAGUCCG: -0.358
CAAAUAC: 0.523
UGGGAUC: 0.0696
UCAGCGG: 0.0116
GUGGGCA: 0.379
GAAUCAG: 0.0768
AUCCAUU: -0.251
UAACCUA: -0.142
ACAUAAU: 0.0442
CAACUUA: -0.262
UAUUACU: -0.331
UAUUGGG: 0.204
GUUUCGU: -0.605
UCUCACA: -0.36
AAUACCA: 0.345
GUGACGC: -0.104
UUAAAAA: 8.65
ACCCUGC: -0.345
UGGGGGA: 0.506
GUUCCGA: 0.0297
AGAAGGC: 0.117
AGCUACU: -0.222
GGACAUG: 0.129

Series 4 — method: protein-binding microarray; form: double-stranded DNA, one strand shown; matrix: in vitro; concentration: not given; direction: higher = stronger binding; endpoint: E-score
Target: Protein C-ets-1 (ETS1, Homo sapiens, UniProt P14921, residues 1-441, Y397A, full length assumed)
Setting: k-mer, scored over probes, only values ≥0.25
Target sequence (chain): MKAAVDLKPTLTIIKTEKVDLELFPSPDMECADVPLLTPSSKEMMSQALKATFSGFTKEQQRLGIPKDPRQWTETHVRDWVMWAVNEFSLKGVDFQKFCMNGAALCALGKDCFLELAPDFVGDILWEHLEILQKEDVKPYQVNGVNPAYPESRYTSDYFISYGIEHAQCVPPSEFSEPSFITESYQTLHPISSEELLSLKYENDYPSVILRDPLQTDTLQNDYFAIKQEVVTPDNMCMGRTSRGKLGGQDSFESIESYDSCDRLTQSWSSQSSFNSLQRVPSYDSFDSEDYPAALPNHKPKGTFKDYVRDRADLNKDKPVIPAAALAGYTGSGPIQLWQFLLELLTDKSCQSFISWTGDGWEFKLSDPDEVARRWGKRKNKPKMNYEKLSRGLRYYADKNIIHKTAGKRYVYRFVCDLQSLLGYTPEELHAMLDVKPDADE
ACATCCGT: 0.335
ATACAAAC: 0.316
GCATCCGC: 0.295
AAATTTGT: 0.253
ATTGCCAG: 0.373
AACATGAC: 0.262
ATCCGACA: 0.337
CATCCGTA: 0.283
GGCAACGA: 0.279
TACCGGAA: 0.361
CAATTGAC: 0.31
GAACTTCC: 0.316
CTACAAAC: 0.296
TGTGGCAA: 0.256
GACGGCAA: 0.328
CTGCGACA: 0.284
GACCGACA: 0.256
TAGCAAAA: 0.264
AACTTCCA: 0.253
CTTTTGTC: 0.354
ATCCCCAC: 0.282
CAACCCCA: 0.297

Repeated from above (series 1):
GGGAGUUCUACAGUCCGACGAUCUCAAGUCCUGUGCUACACAUCGUAUGUACCGAAUCGGAAAGGAAAGGUUUUUGGAAAGUAUUAUGUUACGCCGUUCGGAUCUGCACUUCCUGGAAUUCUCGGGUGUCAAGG: -0.287
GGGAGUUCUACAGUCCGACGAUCGUCCUGUGCUACACAUCGUAUGUACCGAAUCGGGGAGGGGAAAAAGGGGAAAAAGGGGAAAGUAUUAUGUUACGCCGUUCGGAUCUGCACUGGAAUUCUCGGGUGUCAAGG: 0.956
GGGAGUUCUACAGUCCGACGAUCCUCAAGUCCUGUGCUACACAUCGUAUGUACCGAAUCGGAAAGGAGGUUUUUGGAAAGUAUUAUGUUACGCCGUUCGGAUCUGCACUUCCAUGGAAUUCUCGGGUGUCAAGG: -0.225
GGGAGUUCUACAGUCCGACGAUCGAACUUUAGAGGAGGAUCUGAUGGAUAUGGCAGUGGACGUGGAUUUGGGGAUGGCUAUAAUGGGUAUGGAGGAGGACCUGGAGGUGGCAAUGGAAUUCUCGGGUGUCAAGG: -0.765
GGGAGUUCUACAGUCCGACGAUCGCAGGAAGUAAAAACAAAUGGAAAUGCUUCGAAAAGUGGCAGGGGUGGGGGUUGCUAAGGAAAGGGUGGGAUGGGAGUGGGUAAAGAGUUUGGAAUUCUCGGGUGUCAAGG: 1.52
